Measured values from different studies.
Numbered parts are unrelated; each lists some results of a single study.

Study 1
Target: RNA binding protein fox-1 homolog 2, RRM domain, GST-SBP tag (RBFOX2, Homo sapiens, UniProt O43251-10, residues 100-194)
Technique: RNA Bind-n-Seq
Molecule type: RNA
Medium: in vitro
Concentration: 365 nM
Setting: natural RNA segment, single round, ends assumed
Relative to: no-protein control
Reading: higher = stronger binding
Constant ends, left off below: GGGAGUUCUACAGUCCGACGAUC … UGGAAUUCUCGGGUGCCAA
Target sequence (chain): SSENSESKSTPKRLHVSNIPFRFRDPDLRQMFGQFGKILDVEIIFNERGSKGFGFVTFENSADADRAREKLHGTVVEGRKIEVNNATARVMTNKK
Sequence | RBNS enrichment (R)
CACUAAGGACAUUUAGAAUCCCCAUCCAUCCAUCCAUCCAUCCAUCCAUCCAUCCAUUCAUCCAUCCCCAGUGUUCCAUGUGUCACCUUCUCCUUUUCCAGCAUCCCUAU | 2.6
AUCUCGGCUCACUGCAACCUCCGCCUCCUUGGUUCCAGCAAUUCUUCUGCCUCAGCCUCCCGAGUAGCUGGGACUACAAGCGGCUGCCACCACACCUGGCUAUUUUUUUU | 0.213
UUUUUUAAAAAAAAAAAGAAGAAAAAAGAGACAGAGAAAAUUGGUAUUUAUUUUUCUAUUAUAGCCAUAUUUAUAUAUUUAUGCACUUGUAAAUAAAUGUAUAUGUUUUA | 2.03
CCCAGUAUAGACUGAGUGUCCACUUCAGCAAAGGUGUUUUCAUCCCAGCCUUGGUUUGGAGCUUGCAGACGUAACUGAAUAUAAUUUCCUCCAUUUGCAGCAUGGUUCCC | 0.756
UAUUACUUGAGUAUUUCUGUCUUUUCACAGAAAAACAUUGGGUUUCUCUCUGGGUUUGGACAUGAAAUGUAAGAAAAGAUUUUUCACUGGAGCAGCUCUCUUAAGGAGAA | 0.787
UUUUCAGAGGGGCUCUGAACAGAAUGAAAACCUAGUUCUUGCGUGUACUUUGAAGAAUGGAAUUGUAUUAGUCAGCCUGUUAAUGCCACUUCAGAGUUUGGGGUUUUGUC | 9.19
UUAAAAAUGUUUAAAUAUUUUGCUUUGCUAAUGUGCUGAUCCGCACUAACUCAUCUUUGCAAAAGGAACUGCUCCCUCGGCGUGCCCCAGCUGGGGCCUCUGAAGGGAUU | 0.232
CCAUGCUCAGUGGUCACUAUCCCCUCAACUCCCCACUUAGGGUUGGAAGUUCUGCCACUGUACUCUGGAAAUCCUGUCCUCACCUUGCCCUUCCCUGAGCAUCCGACUCU | 0.58
GCAUAACCCACGUUUGUAUAAAUUAUUGAAAUCCAUUUUCACCUAAGAAUGGACUUAAGAAGUACUGCUGGGCAAGUGUGCUGAAAGUACAUUAACUGCUCAAAUACAAG | 1.13
GCGCUCAACCGAAUUGCUGCUCAGGAGGUCCCCAUUGAGAUCAAGCCAGUAAACCCAUCCCCCCUGAGCCAGCUGCAGAGAAUGGAGCCCAAACAGAUGUUCUGGGUGCG | 0.65
GAGAAAACAAACAAUCUUUGAAGAAUUUCUGAAACUGUUUACAAGGAAUUUUGAAAAACAGGGAUGUUUAAAUGAUGCUGGCUCUGUUUUUCUGUAAAUAAAUUUGCAUA | 0.971
AUGGAUGAAUACCUGAGUCACCAGCUGAAGUGUCCCUUAUGAGGAAAGAAGAGGCCAGGGACUAGAAGAUGCACCCCUUUCCUCCUGGGAGCCCCACGCUUCAGGAGUAG | 0.44

Study 2
Target: Interferon regulatory factor 7, full length, phosphomimetic (IRF7, Homo sapiens, UniProt Q92985, residues 1-503, S471D/S472D/S475D/S476D/S477D/S483D/S484D/S487D)
Chain of UniProt Q92985 (whole entry, unmodified, looked up): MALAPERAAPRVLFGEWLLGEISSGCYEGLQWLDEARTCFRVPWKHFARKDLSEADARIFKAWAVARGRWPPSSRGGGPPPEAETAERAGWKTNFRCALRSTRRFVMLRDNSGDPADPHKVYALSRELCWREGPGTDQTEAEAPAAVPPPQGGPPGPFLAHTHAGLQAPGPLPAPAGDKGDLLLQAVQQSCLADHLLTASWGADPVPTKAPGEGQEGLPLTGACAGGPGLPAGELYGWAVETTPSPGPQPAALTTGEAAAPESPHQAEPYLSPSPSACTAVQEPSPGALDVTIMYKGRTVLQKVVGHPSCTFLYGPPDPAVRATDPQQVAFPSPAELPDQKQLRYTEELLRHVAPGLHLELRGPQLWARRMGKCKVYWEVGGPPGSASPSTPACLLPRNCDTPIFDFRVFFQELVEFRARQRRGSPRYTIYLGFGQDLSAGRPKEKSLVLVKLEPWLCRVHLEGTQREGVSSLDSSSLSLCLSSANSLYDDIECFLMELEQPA
Technique: protein-binding microarray
Molecule type: double-stranded DNA, one strand shown
Medium: in vitro
Concentration: 2200 nM top
Setting: 60-bp whole probe
Added: salmon DNA 0.4 mg/ml
Relative to: random background probes
Reading: higher = stronger binding
Constant ends, left off below: GCCTAGCAC … GTCTTGATTCGCTTGACGCTGCTG
Sequence | fitted relative affinity [z-score]
TTAGAACTGGGTTATCGATTAGTGCTA | -0.153
TCAGAACTGGGGACTGGATTAGTGCTA | -0.579
TTAGGTTTCCGTTTCCTTTAGTGCTAG | 6.72
GACGGACAGCTTCTCCTGACGTGCTAG | 0.158
GTCGATTCCAGTTTCGAGACGTGCTAG | 4.87
CTGTTTTTGCTTTCCTTCATGTGCTAG | 5.53
TGGCCTATTTATATGAGATGGTGCTAG | -0.0273
CTTGGGCTCTTCTCTGAAGACGTGCTA | -0.65
TTAGGTATCGATTTTCGGTTAGTGCTA | 5.36
GAGTGCTGGGATTACAGGCAGTGCTAG | -0.18
TCAGTCCTCACTTCCTTACTGTGCTAG | 2.57
GACGGTATCCTTATCCTGAAGTGCTAG | 0.715
TTAGGTTTCGGTCGCGGTTAGTGCTAG | 3.95
TTAGGTCTCGGACTGCGTTAGTGCTAG | 0.465
TCAATTTTCGTTTTTATACTGTGCTAG | 9
TCAAGGATGGTTTTCAGACTGTGCTAG | -0.322
GGCGGACTGGGGTATCGGGACGTGCTA | -1.52
TTAGGACTGGGACTGAGTTAGTGCTAG | -0.691
TAAGATTTCAGACTGGATTAGTGCTAG | -0.14
GACGATTTCGGGACTAGAGACGTGCTA | 1.46
TTAGGTTTCGTACTGCTTTAGTGCTAG | 3.67
CTTTCTTTACTTCACTCTCTGTGCTAG | 2.31
GACGATTTCTGGTATCGAGACGTGCTA | 1.36
TTAGATTTCAGTCTCTATTAGTGCTAG | 0.873
TCAGCATTTTTTTTATCACTGTGCTAG | 0.631

Study 3
Target: Sal-like protein 4, full length isoform B (SALL4, Homo sapiens, UniProt Q9UJQ4-2, residues 1-616)
Technique: universal PBM
Molecule type: double-stranded DNA, one strand shown
Medium: in vitro
Concentration: not given
Setting: 8-mer, flanks averaged, mean of replicates
Reading: higher = stronger binding
Sequence | E-score
CTAGATTA | 0.228
AAATCGCA | 0.131
AGTACTTG | 0.166
CAGCGGAC | -0.268
AATCAATA | 0.368
GAATGTAA | 0.235
ACGGGCCT | -0.283
AGGTAGAA | 0.148
CAAACACA | 0.136
CCTAAAAA | 0.0493
ATGCGAAT | 0.156
CGATCTGA | -0.0158
GTCCTTTA | -0.0304
CATTTGGG | -0.042
CACAGCCG | -0.247
GGAGCGAC | -0.223
ACGAGATG | -0.102
ATGAGAAA | 0.227
CTAAGAAC | -0.199
ACTGCTCA | 0.00478
ACGCAAGG | -0.17
TCACTCGA | 0.0301
GCCATACC | -0.117
ACCATACA | 0.028

Study 4
Target: Histone acetyltransferase KAT6A, winged helix 1, GST fusion (KAT6A, Homo sapiens, UniProt Q92794, residues 1-85)
Technique: protein binding microarray
Molecule type: double-stranded DNA, one strand shown
Medium: in vitro
Concentration: not given
Setting: 8-mer, flanks averaged, mean of 2 arrays, mostly near background
Relative to: not given
Reading: higher = stronger binding
Target sequence (chain): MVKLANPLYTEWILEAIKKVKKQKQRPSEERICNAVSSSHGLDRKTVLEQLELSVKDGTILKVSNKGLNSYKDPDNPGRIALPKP
Sequence | E-score
ATGAACAT | -0.124
AAGTAGCG | 0.07
AAGGCAAA | -0.152
AGATTCCT | -0.262
CGGTATGA | 0.0575
GTAGATCA | -0.107
ACCGACCT | 0.00502
TGCGCACA | 0.316
ATTGCCAG | -0.168
CTTGATAA | -0.15
CATTTCTC | -0.0687
GCGGAACC | 0.312
AGACATGC | -0.0429
CCTAACCA | -0.179
AAATACAA | -0.182
CGGAGTGC | 0.173
GGCGGCTA | 0.341
CCGAAGAC | -0.107

Study 5
Target: Protein C-ets-1 (ETS1, Homo sapiens, UniProt P14921, residues 1-441, full length assumed)
Technique: protein-binding microarray
Molecule type: double-stranded DNA, one strand shown
Medium: in vitro
Concentration: not given
Setting: k-mer, scored over probes, only values ≥0.25
Reading: higher = stronger binding
Target sequence (chain): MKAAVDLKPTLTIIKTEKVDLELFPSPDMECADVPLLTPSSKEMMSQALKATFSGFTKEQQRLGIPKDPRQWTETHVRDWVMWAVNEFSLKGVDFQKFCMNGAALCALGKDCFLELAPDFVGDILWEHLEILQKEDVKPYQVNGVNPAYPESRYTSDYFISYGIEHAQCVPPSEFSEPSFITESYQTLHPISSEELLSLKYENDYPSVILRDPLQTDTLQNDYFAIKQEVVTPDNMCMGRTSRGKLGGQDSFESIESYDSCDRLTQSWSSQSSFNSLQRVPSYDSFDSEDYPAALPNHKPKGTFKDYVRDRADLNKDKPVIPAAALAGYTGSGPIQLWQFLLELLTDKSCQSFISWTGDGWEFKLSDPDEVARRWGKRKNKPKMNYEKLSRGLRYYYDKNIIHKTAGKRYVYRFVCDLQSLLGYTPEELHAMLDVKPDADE
Sequence | E-score
CCCCCCGG | 0.315
GACCGGAA | 0.489
CACACCGG | 0.366
ACATCCTG | 0.474
GCGGATGA | 0.391
CTACTTCC | 0.465
ATTATCCG | 0.295
ACATCCCT | 0.278
CGGTTATC | 0.257
ATATCCGA | 0.318
ACTCCCGG | 0.264
ATCCGCTA | 0.329
ACGGGAAA | 0.41
GCTTCCTA | 0.34
CTGCTTCC | 0.445
ACCAGGAT | 0.279
CCGGGAGG | 0.316
CCCGGAAG | 0.487
AACCGGGA | 0.287
ACGGAACT | 0.386
CGTCATCC | 0.289
CAAGGAAA | 0.253
ACATCCCC | 0.363
AGGACGGA | 0.281

For quick reference, copied from above (study 4):
Sequence | E-score
ATGAACAT | -0.124
AAGTAGCG | 0.07
AAGGCAAA | -0.152
AGATTCCT | -0.262
CGGTATGA | 0.0575
GTAGATCA | -0.107
ACCGACCT | 0.00502
TGCGCACA | 0.316
ATTGCCAG | -0.168
CTTGATAA | -0.15
CATTTCTC | -0.0687
GCGGAACC | 0.312
AGACATGC | -0.0429
CCTAACCA | -0.179
AAATACAA | -0.182
CGGAGTGC | 0.173
GGCGGCTA | 0.341
